Experimental data collected from several papers.
Each line is one published result; not all experiments were run side by side. ± marks the error that the study gave.

For `CC(CCC(=O)NCc1ccc(C(=O)NO)cc1)C1CCC2C3C(O)CC4CC(O)CCC4(C)C3CCC12C` (stereo not shown), serum albumin read “increased” (PCK rats; oral gavage, 15 mg/kg/day, 5 months; baseline: untreated).
For `COc1ccc(C2CC(c3ccc(C)cc3)=Nc3ccccc3S2)cc1OC` (stereo not shown), the serum ALT was 23.7 ± 2.3 IU/L (Wistar rat, streptozotocin-induced diabetes, serum; 10 mg/kg, 28 days).
`CCCC[C@H](NC(=O)[C@@H](NC(=O)[C@H](CC(=O)O)NC(=O)[C@H](CCC(N)=O)NC(=O)[C@H](CC(C)C)NC(=O)[C@H](CC(C)C)NC(=O)[C@H](CCCN)NC(=O)[C@H](CCCNC(=N)N)NC(=O)[C@H](C)NC(=O)[C@H](CO)NC(=O)[C@H](CC(C)C)NC(=O)[C@H](CCC(N)=O)NC(=O)[C@H](CC)NC(=O)[C@H](CC(C)C)NC(=O)[C@@H](NC(=O)[C@H](CCCN)NC(=O)[C@H](CCCNC(=N)N)NC(=O)[C@H](Cc1ccc(O)cc1)NC(=O)[C@H](CO)NC(=O)[C@H](CCC(N)=O)NC(=O)[C@@H](NC(=O)[C@H](Cc1ccccc1)NC(=O)[C@@H](NC(=O)[C@H](C)NC(=O)[C@H](CC(=O)O)NC(=O)[C@@H](C)NC(=O)CCc1ccc(O)cc1)[C@@H](C)CC)[C@@H](C)O)C(C)C)[C@@H](C)CC)C(=O)N[C@@H](CC(=O)O)C(=O)N[C@@H](CCCNC(=N)N)C(=O)NC`: “serum GH level” 213 ± 32 ng/mL (GH release, ELISA; male Sprague-Dawley rat, anaesthetised, serum; subcutaneous, 3 µg/kg, 15 min).
Under “serum total cholesterol”, `O=c1c(OCc2ccccc2)c(-c2cccc([N+](=O)[O-])c2)oc2ccccc12` is recorded as 152 ± 4.8 mg/dL (diabetic rat; 5 mg/kg, 28 days, p-nitrophenyl β-glucoside induced).
`Cc1cc(O)c(C=O)c2c1C(=O)Oc1c(CO)c(O)c3c(c1O2)C(O)OC3=O` (stereo not shown) gave a serum insulin of 3.39 ± 0.13 mIU/L (rat, male, streptozotocin-induced diabetes; 5 mg/kg, 0 weeks).
For `O=c1c(OCc2ccccc2)c(-c2ccc(Cl)cc2)oc2ccccc12`, “serum total cholesterol” read 145 ± 4.79 mg/dL (diabetic rat; 5 mg/kg, 28 days, p-nitrophenyl β-glucoside induced).
`CCCC[C@H](NC(=O)[C@@H](NC(=O)[C@H](CC(=O)O)NC(=O)[C@H](CCC(N)=O)NC(=O)[C@H](CC(C)C)NC(=O)[C@H](CC(C)C)NC(=O)[C@H](CCCN)NC(=O)[C@H](CCCNC(=N)N)NC(=O)[C@H](C)NC(=O)[C@H](CO)NC(=O)[C@H](CC(C)C)NC(=O)[C@H](CCC(N)=O)NC(=O)[C@H](CC)NC(=O)[C@H](CC(C)C)NC(=O)[C@@H](NC(=O)[C@H](CCCN)NC(=O)[C@H](CCCNC(=N)N)NC(=O)[C@H](Cc1ccc(O)cc1)NC(=O)[C@H](CO)NC(=O)[C@H](CC(N)=O)NC(=O)[C@@H](NC(=O)[C@H](Cc1c(F)c(F)c(F)c(F)c1F)NC(=O)[C@@H](NC(=O)[C@H](C)NC(=O)[C@H](CC(=O)O)NC(=O)[C@@H](C)NC(=O)CCc1ccc(O)cc1)[C@@H](C)CC)[C@@H](C)O)C(C)C)[C@@H](C)CC)C(=O)N[C@@H](CO)C(=O)N[C@@H](CCCNC(=N)N)C(=O)NCCCC(N)=O` — result for “serum GH level”: 575 ± 20.9 ng/mL (GH release, ELISA; male rat, anaesthetised, serum; intravenous, 1 µg/kg, 15 min).
`COc1ccc(-c2oc3ccccc3c(=O)c2OCc2ccccc2)cc1`: “serum HDL cholesterol” 52.7 ± 2.08 mg/dL (diabetic rat; 7.5 mg/kg, 28 days, p-nitrophenyl β-glucoside induced).
`CCCC[C@H](NC(=O)[C@@H](NC(=O)[C@H](CC(=O)O)NC(=O)[C@H](CCC(N)=O)NC(=O)[C@H](CC(C)C)NC(=O)[C@H](CC(C)C)NC(=O)[C@H](CCCN)NC(=O)[C@H](CCCNC(=N)N)NC(=O)[C@H](C)NC(=O)[C@H](CO)NC(=O)[C@H](CC(C)C)NC(=O)[C@H](CCC(N)=O)NC(=O)[C@H](CC)NC(=O)[C@H](CC(C)C)NC(=O)[C@@H](NC(=O)[C@H](CCCN)NC(=O)[C@H](CCCNC(=N)N)NC(=O)[C@H](Cc1ccc(O)cc1)NC(=O)[C@H](CO)NC(=O)[C@H](CC(N)=O)NC(=O)[C@@H](NC(=O)[C@H](Cc1ccccc1)NC(=O)[C@@H](NC(=O)[C@H](C)NC(=O)[C@H](CC(=O)O)NC(=O)[C@@H](CC)NC(=O)CCc1ccc(O)cc1)[C@@H](C)CC)[C@@H](C)O)C(C)C)[C@@H](C)CC)C(=O)N[C@@H](CO)C(=O)N[C@@H](CCCNC(=N)N)C(=O)NCCCC(N)=O`: “serum GH level” 25.4 ± 4.1 ng/mL (GH release, ELISA; male Sprague-Dawley rat, anaesthetised, serum; subcutaneous, 3 µg/kg, 0 min).
`COc1ccc(C2CC(c3ccc(C)cc3)=Nc3ccccc3S2)cc1` (stereo not shown) gave a serum ALT of 21.1 ± 2.71 IU/L (Wistar rat, streptozotocin-induced diabetes, serum; 20 mg/kg, 28 days).

Excerpt of the above:
`CCCC[C@H](NC(=O)[C@@H](NC(=O)[C@H](CC(=O)O)NC(=O)[C@H](CCC(N)=O)NC(=O)[C@H](CC(C)C)NC(=O)[C@H](CC(C)C)NC(=O)[C@H](CCCN)NC(=O)[C@H](CCCNC(=N)N)NC(=O)[C@H](C)NC(=O)[C@H](CO)NC(=O)[C@H](CC(C)C)NC(=O)[C@H](CCC(N)=O)NC(=O)[C@H](CC)NC(=O)[C@H](CC(C)C)NC(=O)[C@@H](NC(=O)[C@H](CCCN)NC(=O)[C@H](CCCNC(=N)N)NC(=O)[C@H](Cc1ccc(O)cc1)NC(=O)[C@H](CO)NC(=O)[C@H](CC(N)=O)NC(=O)[C@@H](NC(=O)[C@H](Cc1ccccc1)NC(=O)[C@@H](NC(=O)[C@H](C)NC(=O)[C@H](CC(=O)O)NC(=O)[C@@H](CC)NC(=O)CCc1ccc(O)cc1)[C@@H](C)CC)[C@@H](C)O)C(C)C)[C@@H](C)CC)C(=O)N[C@@H](CO)C(=O)N[C@@H](CCCNC(=N)N)C(=O)NCCCC(N)=O`: “serum GH level” 25.4 ± 4.1 ng/mL (GH release, ELISA; male Sprague-Dawley rat, anaesthetised, serum; subcutaneous, 3 µg/kg, 0 min).
